Measured values pooled from the literature.
Protocols differ between the studies behind these lines. ± gives the spread as reported.

| SMILES | tested on | test | conditions | measurement | value |
| --- | --- | --- | --- | --- | --- |
| N=C(N)c1ccc(OCCCCCOc2ccc(C(=N)N)cc2)cc1 | WM-115, S100B shRNA | cell growth, SYBR Green | low S100B | EC50 | 26000 ± 4000 nM |
| COc1cc2c(cc1OC)CN(CCCCn1ccc3ccccc31)CC2 | BxPC-3, AsPC-1, PANC-1, Panc02 | cytotoxicity | 48 h | EC50 | > 100000 nM |
| O=C(CCCCCC(=O)NN=Cc1ccc(-c2ccccc2)cc1)NO | mouse primary forebrain neurons | histone H4K12 acetylation | 24 h | EC50 | 290 nM |
| Cc1ccc(C(=O)OCC(=O)N=c2sccn2Cc2ccccc2Cl)s1 | SK-BR-3 | cell growth or viability, MTT | 48 h | EC50 | 10000 nM |
| C[C@H]1C[C@H]2[C@@H]3CCC4=CC(=O)C=C[C@]4(C)[C@@]3(F)[C@@H](O)C[C@]2(C)[C@@]1(O)C(=O)CO | Kasumi 1 | cell growth or viability, XTT | – | EC50 | 28 nM |
| CCCCC[C@H](O)/C=C/[C@H]1CCC(=O)[C@@H]1CCCCCCC(=O)O | rat bone marrow cells | alkaline phosphatase activity, activator | 9 days | EC50 | 95.8 ± 21.9 nM |
| CC[C@H](C)[C@H](NC(=O)[C@H](CCC(=O)O)NC(=O)[C@H](CC(=O)O)NC(=O)CNC(=O)[C@H](CC(C)C)NC(=O)[C@H](CCCNC(=N)N)NC(=O)[C@H](CCCNC(=N)N)NC(=O)[C@H](CC(C)C)NC(=O)CNC(=O)[C@H](CCC(N)=O)NC(=O)[C@@H](NC(=O)[C@H](CCSC)NC(=O)[C@H](Cc1c[nH]c2ccccc12)NC(=O)[C@@H](NC(=O)[C@H](CCC(=O)O)NC(=O)[C@@H]1CCCN1C(=O)[C@H](CCCNC(=N)N)NC(C)=O)[C@@H](C)CC)[C@@H](C)O)C(=O)N[C@@H](CC(N)=O)C(=O)N[C@@H](C)C(=O)N[C@@H](Cc1ccc(O)cc1)C(=O)N[C@@H](Cc1ccc(O)cc1)C(=O)N[C@@H](C)C(=O)N[C@@H](CCCNC(=N)N)C(N)=O | MDA-MB-231, permeabilized | mitochondrial depolarization, BH3 profiling, JC-1 | 3 h | EC50 | > 100000 nM |
| C[C@]12C=CC(=O)C=C1CC[C@@H]1[C@@H]2[C@@H](O)C[C@@]2(C)[C@H]1CC[C@]2(O)C(=O)CO | Kasumi 1 | cell growth or viability, XTT | – | EC50 | 110 nM |
| CCC#CC[C@H](C)[C@H](O)/C=C/[C@H]1CC(F)(F)C(=O)N1CCCCCCC(=O)O | rat bone marrow cells | alkaline phosphatase activity, activator | 9 days | EC50 | 2.44 ± 0.45 nM |
| O=c1[nH]cc(F)c(=O)[nH]1 | SW-403 | cell viability, trypan blue exclusion | single exposure | EC50 | 1360 ± 60 nM |
| CN(C)/N=N/c1[nH]cnc1C(N)=O | Kasumi 1 | cell growth or viability, XTT | – | EC50 | 2900 nM |
| C[C@]12CC[C@@H]3C(=CC=C4C[C@@H](O)CC[C@]43C)[C@@H]1CC[C@@H]2C(=O)CO | SK-MEL-188 | cell growth or viability, MTT | 48 h | EC50 | 130 nM |
| O=C(OOC(=O)c1ccccc1)c1ccccc1 | cysteine peptide Ac-RFAACAA-COOH | DPRA RapidFire-MS/MS | 24 h, pH 7.5, together with: 5.0 µM cysteine peptide | maximal peptide depletion | -107% |
| CO[C@H]1/C=C\C=C(/C)C(=O)NC2=CC(=O)C(NCCN(C)C)=C(C[C@@H](C)C[C@H](OC)[C@H](O)[C@@H](C)/C=C(\C)[C@@H]1OC(N)=O)C2=O | Kasumi 1 | cell growth or viability, XTT | – | EC50 | 48 nM |
| CCCCCC(O)C=CC1CCC(=O)N1CCCCCCC(=O)O (centres unmarked) | rat bone marrow cells | alkaline phosphatase activity, activator | 9 days | EC50 | 91.2 ± 26.6 nM |
| O=C(CC(O)(c1nc2ccccc2s1)C(F)(F)F)c1cccc(Br)c1 (centres unmarked) | SK-BR-3 | cell growth or viability, MTT | 48 h | EC50 | 11000 nM |
| O=CCCCC=O | cysteine peptide Ac-RFAACAA-COOH | DPRA RapidFire-MS/MS | 24 h, pH 7.5, together with: 5.0 µM cysteine peptide | maximal peptide depletion | -119% |

Repeated from above:
| SMILES | tested on | test | conditions | measurement | value |
| --- | --- | --- | --- | --- | --- |
| COc1cc2c(cc1OC)CN(CCCCn1ccc3ccccc31)CC2 | BxPC-3, AsPC-1, PANC-1, Panc02 | cytotoxicity | 48 h | EC50 | > 100000 nM |
